Experimental data of several laboratories.
Each line is one published result; not all experiments were run side by side. ± marks the error that the study gave.
Sequence of UniProt Q13237 (whole entry, looked up): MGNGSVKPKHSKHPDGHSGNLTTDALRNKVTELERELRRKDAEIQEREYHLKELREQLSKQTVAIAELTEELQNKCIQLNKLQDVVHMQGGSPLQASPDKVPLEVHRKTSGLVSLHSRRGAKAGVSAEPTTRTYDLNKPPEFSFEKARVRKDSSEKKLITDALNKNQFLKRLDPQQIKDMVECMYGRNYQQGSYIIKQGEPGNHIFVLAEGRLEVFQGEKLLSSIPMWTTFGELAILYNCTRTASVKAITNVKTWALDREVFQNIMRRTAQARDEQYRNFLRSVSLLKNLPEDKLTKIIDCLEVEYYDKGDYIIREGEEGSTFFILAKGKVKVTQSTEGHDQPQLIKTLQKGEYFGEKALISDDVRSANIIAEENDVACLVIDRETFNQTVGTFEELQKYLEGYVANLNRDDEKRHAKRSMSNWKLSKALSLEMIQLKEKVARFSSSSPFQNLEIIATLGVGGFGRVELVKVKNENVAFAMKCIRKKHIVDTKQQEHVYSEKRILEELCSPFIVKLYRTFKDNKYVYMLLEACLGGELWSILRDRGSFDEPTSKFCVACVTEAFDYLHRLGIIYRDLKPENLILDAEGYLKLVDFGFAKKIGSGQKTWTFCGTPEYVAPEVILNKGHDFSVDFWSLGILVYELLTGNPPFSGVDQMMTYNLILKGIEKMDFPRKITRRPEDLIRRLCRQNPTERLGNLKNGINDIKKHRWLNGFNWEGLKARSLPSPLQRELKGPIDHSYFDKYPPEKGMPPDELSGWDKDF
Sequence of UniProt P51679 (whole entry, looked up): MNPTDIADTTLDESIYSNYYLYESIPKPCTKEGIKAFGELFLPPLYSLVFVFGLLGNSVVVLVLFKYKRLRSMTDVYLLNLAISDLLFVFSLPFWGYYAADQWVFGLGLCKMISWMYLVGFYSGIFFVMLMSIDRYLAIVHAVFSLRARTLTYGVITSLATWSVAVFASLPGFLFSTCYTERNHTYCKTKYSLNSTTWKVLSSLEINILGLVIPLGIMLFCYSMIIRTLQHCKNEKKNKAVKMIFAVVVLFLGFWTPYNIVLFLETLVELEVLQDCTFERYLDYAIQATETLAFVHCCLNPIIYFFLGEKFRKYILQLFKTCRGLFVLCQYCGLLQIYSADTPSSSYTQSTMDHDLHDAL
Sequence of UniProt Q96LA9 (whole entry, looked up): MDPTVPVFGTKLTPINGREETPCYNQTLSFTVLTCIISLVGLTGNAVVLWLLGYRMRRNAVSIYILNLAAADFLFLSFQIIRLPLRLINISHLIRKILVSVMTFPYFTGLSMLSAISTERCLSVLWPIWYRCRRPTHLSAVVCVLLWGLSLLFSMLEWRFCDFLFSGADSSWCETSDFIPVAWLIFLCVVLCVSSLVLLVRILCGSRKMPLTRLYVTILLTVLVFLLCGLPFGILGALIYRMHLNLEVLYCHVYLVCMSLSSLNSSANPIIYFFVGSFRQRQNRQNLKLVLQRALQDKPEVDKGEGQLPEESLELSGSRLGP
Sequence of UniProt P07197 (whole entry, looked up): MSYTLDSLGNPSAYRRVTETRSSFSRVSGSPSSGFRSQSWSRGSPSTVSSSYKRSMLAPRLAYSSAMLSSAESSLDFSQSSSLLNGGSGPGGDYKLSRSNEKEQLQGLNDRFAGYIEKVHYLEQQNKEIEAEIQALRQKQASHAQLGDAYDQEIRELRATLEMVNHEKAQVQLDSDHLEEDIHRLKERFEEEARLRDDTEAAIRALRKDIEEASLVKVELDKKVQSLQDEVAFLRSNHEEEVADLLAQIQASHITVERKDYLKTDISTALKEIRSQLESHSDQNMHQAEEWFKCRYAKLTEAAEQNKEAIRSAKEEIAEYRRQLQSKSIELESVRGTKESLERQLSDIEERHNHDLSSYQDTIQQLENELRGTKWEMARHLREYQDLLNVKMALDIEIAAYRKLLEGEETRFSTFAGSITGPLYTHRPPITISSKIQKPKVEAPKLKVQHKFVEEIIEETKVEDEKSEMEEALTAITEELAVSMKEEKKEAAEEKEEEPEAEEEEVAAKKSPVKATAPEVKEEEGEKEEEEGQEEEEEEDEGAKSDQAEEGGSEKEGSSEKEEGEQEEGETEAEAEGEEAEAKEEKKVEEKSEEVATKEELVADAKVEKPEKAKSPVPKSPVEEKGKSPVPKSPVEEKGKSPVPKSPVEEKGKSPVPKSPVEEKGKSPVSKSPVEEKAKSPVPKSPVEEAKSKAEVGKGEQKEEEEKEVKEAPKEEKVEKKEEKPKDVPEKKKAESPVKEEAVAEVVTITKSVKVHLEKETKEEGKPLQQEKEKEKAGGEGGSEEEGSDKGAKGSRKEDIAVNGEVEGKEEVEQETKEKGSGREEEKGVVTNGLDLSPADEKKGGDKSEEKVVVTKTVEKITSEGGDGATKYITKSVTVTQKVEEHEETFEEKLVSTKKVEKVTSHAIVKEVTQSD

CC(C)N(N=O)C(C)C
revertant colonies per plate (Escherichia coli; mutagenicity, Ames plate incorporation; WP2 uvrA pKM101; 1500 µg/plate, without S9, methanol): 160 ± 12

Oc1ccc2c3c1O[C@H]1[C@@H](O)CC[C@@]4(O)[C@@H](C2)N(CC2CCC2)CC[C@]314
log2 fold change (Mas-related G-protein coupled receptor member X4 (Homo sapiens, UniProt Q96LA9); β-arrestin recruitment, TANGO luminescence, item: MRGPRX4; concentration not given; reference: basal luminescence): -0.308

Cc1ncc(OC[C@@]2(c3cccc(F)c3)C[C@H]2C(=O)Nc2ccc(F)cn2)c(C)n1
mass recovery (MDCK; 1 µM, 90 min, pH 6.5 apical, 7.4 basolateral, apical to basolateral): 103 ± 7%

CC(C)C[C@H](NC(=O)C[C@H](O)[C@H](CC(C)C)NC(=O)[C@H](Cc1c[nH]cn1)NC(=O)CNC(=O)[C@@H](NC(=O)[C@H](C)NC(=O)[C@H](Cc1c[nH]c2ccccc12)NC(=O)[C@H](CCC(N)=O)NC(=O)[C@@H](Cc1ccccc1)NC(=O)CCNC(=O)CCSc1nnc(NCCC(=O)NCCC(=O)NCCCC[C@H](NC(=O)N[C@@H](CCC(=O)O)C(=O)O)C(=O)O)c2c1CCC1C(CC2)C1COC(=O)NCCNC(=O)CC[C@H](C(=O)O)N1CCN(CC(=O)O)CCN(CC(=O)O)CC1)C(C)C)C(N)=O (stereo partly shown) [gallium-68 labelled]
tissue uptake (athymic NMRI nude mouse, liver; intravenous, 533 pmol, 2 h): 0.12 %ID/g

CC[C@H](C)[C@@H]1NC(=O)[C@@H]2CCCN2C(=O)[C@H](CC(C)C)NC(=O)[C@H](CC(C)C)NC(=O)CNC(=O)[C@@H](NC(=O)[C@@H](NC(=O)[C@H](CC(=O)O)NC(=O)CNC(=O)[C@@H](NC(=O)[C@H](C)NC(=O)CNC(=O)[C@H](CCCCN)NC(=O)[C@H](CC(C)C)NC(=O)[C@H](CC(C)C)NC(=O)[C@H](CCCCN)NC(=O)CNC(=O)[C@@H](NC(=O)[C@@H](N)CC(C)C)C(C)C)C(C)C)C(C)C)CSSC[C@@H](C(=O)O)NC1=O
log2 fold change (RNA-seq, item: Clec4a2 mRNA; mouse traumatic brain injury, frontal cortex and hippocampus; dose not given; reference: TBI plus compound vs TBI): -1.78

CC[C@H](C)[C@H](NC(=O)[C@H](CCCCN)NC(=O)[C@H](CCCCN)NC(=O)CNC(=O)[C@H](CCCCN)NC(=O)[C@H](CC(C)C)NC(=O)[C@H](CCCCN)NC(=O)[C@H](CCCNC(=N)N)NC(=O)[C@@H](NC(=O)[C@H](CC(C)C)NC(=O)[C@H](CCCNC(=N)N)NC(=O)[C@@H](N)CCCNC(=N)N)[C@@H](C)CC)C(=O)N[C@@H](Cc1ccc(O)cc1)C(=O)N[C@@H](CC(C)C)C(=O)N[C@@H](Cc1ccc(O)cc1)C(=O)N[C@@H](Cc1ccccc1)C(=O)N[C@@H](CCCCN)C(=O)N[C@@H](CC(C)C)C(=O)N[C@@H](CCC(N)=O)C(=O)N[C@@H](CC(C)C)C(=O)N[C@@H](CC(C)C)C(=O)N[C@@H](CCCCN)C(=O)N[C@@H](CCCCN)C(N)=O
time to near-complete degradation (trypsin; substrate, HPLC; 150 µM, pH 7.4, 37 °C, with: trypsin 0.06 µg/mL): 18 to 20 h

CN(C)CCc1c[nH]c2cccc(OC(=O)CCCC(=O)O)c12.Cl
time to complete conversion (Albumin (ALB, Homo sapiens, UniProt P02768); substrate, item: 4-hydroxytryptamine; human serum 4%): ≤ 30 min

O=c1ccc2ccccc2o1
chance response (NHEK; cell count; concentration not given, 1 h, heat and osmotic shock panel): 0.07%

COc1cc(Nc2ncc(F)c(Nc3ccc4c(n3)NC(=O)C(C)(C)O4)n2)cc(OC)c1OC
IC50 (CCR4 (Homo sapiens, UniProt P51679)): > 10 µM

COc1ccc2c(c1)[C@]13CCCC[C@@H]1[C@H](C2)N(C)CC3
plasma concentration (C57BL/6 mouse, plasma; oral, 50 µg/g, 300 min): 0 ng/mL

C[C@]1(CO)Cc2ncn(-c3ccc(C#N)c(Cl)c3)c2C(=O)O1
subjects with drug-related headache (human; 10 mg multiple doses, fasted): 0%

O=C(O)C[C@H](NC(=O)[C@H](CC(=O)O)NC(=O)[C@H](CC(=O)O)NC(=O)[C@H](CC(=O)O)NC(=O)[C@H](CC(=O)O)NC(=O)[C@H](CC(=O)O)NC(=O)[C@H](CC(=O)O)NC(=O)[C@H](CC(=O)O)NC(=O)[C@H](CC(=O)O)NC(=O)[C@H](CC(=O)O)NC(=O)[C@H](CC(=O)O)NC(=O)[C@H](CCCCNC(=O)c1ccc(C(=O)NCCOCCOB2BBBBBB3BBBB3B2)cc1)NC(=O)CN1CCN(CC(=O)O)CCN(CC(=O)O)CCN(CC(=O)O)CC1)C(=O)O [gallium-67 labelled]
tissue uptake (gamma counting; ddY mouse, male, 6 weeks old, spleen; intravenous, 37 kBq, 10 min): 1.04 %ID/g

C[C@@H](O)[C@@H](CO)NC(=O)[C@@H](CCCNC(=N)N)NC(=O)[C@@H]1CCCN1C(=O)[C@@H]1CSSC[C@H](NC(=O)[C@H](Cc2ccccc2)NC(=O)CN2CCN(CC(=O)O)CCN(CC(=O)O)CCN(CC(=O)O)CC2)C(=O)N[C@@H](Cc2ccc(O)cc2)C(=O)N[C@@H](Cc2ccccc2)C(=O)N[C@@H](CCC(N)=O)C(=O)N[C@@H](CC(N)=O)C(=O)N1 [gallium-68 labelled]
tissue uptake (healthy Wistar rat, adrenals; intravenous, 8 MBq, 120 min, individual animals): 0.08 %ID/g

O=[N+]([O-])c1ccc(N2CCC(NCCC(O)c3ccc(F)c4ccccc34)CC2)c(C(F)(F)F)c1 (stereo not shown)
survival (Salmonella typhimurium; SOS/umu test; TA1535/pSK1002; 0.004 mg/mL, 4 h, with S9, full range): 102%

COc1cccc(-c2n[nH]c(SCc3ccccn3)n2)c1OC
revertant colonies per plate (Salmonella typhimurium; Ames test, preincubation; TA1535; 0.25 mg/plate, without S9): 16

CNC(=O)c1c(N(C)N=O)ncn1C
revertant colonies per plate (Escherichia coli; mutagenicity, Ames plate incorporation; WP2 uvrA pKM101; 2500 µg/plate, without S9, methanol): 114 ± 9

C[C@H]1CN(c2n[nH]c3nc(N[C@H]4CC[C@H](NS(=O)(=O)CCC(F)(F)F)CC4)ncc23)CCO1
remaining binding (Neurofilament medium polypeptide (Homo sapiens, UniProt P07197); Kinobeads competition, item: NEFM; 0.032 µM, unit not given; reference: vehicle): 0.68

CC(C)N(C)N=O
revertant colonies per plate (Escherichia coli; mutagenicity, Ames plate incorporation; WP2 uvrA pKM101; 500 µg/plate, 3 d, without S9, methanol): 155 ± 3

CC[C@H](C)[C@H](NC(=O)[C@H](Cc1ccccc1)NC(=O)[C@H](CCC(=O)O)NC(=O)[C@H](CCCNC(=N)N)NC(=O)[C@H](C)NC(=O)[C@H](C)NC(=O)[C@H](CCC(N)=O)NC(=O)[C@H](CCC(=O)O)NC(=O)[C@H](CCC(=O)O)NC(=O)[C@H](CC(C)C)NC(=O)[C@H](Cc1ccc(O)cc1)NC(=O)[C@H](CO)NC(=O)[C@H](CO)NC(=O)[C@@H](NC(=O)[C@H](CC(=O)O)NC(=O)[C@H](CO)NC(=O)[C@@H](NC(=O)[C@H](Cc1ccccc1)NC(=O)[C@@H](NC(=O)CNC(=O)[C@H](CCC(=O)O)NC(=O)[C@H](C)NC(=O)CCc1c[nH]cn1)[C@@H](C)O)[C@@H](C)O)C(C)C)C(=O)N[C@@H](C)C(=O)N[C@@H](Cc1c[nH]c2ccccc12)C(=O)N[C@@H](CC(C)C)C(=O)N[C@H](C(=O)N[C@@H](CCCNC(=N)N)C(=O)NCC(=O)N[C@@H](CCCNC(=N)N)C(=O)N[C@@H](CCCCNC(=O)COCCOCCNC(=O)COCCOCCNC(=O)CC[C@H](NC(=O)CCCCCCCCCCCCCCCCC(=O)O)C(=O)O)C(=O)NCC(=O)NCC(=O)N[C@@H](CO)C(=O)N[C@@H](CCCCNc1c(NCCCCCN(O)C(=O)CCC(=O)NCCCCCN(O)C(=O)CCC(=O)NCCCCCN(O)C(C)=O)c(=O)c1=O)C(=O)O)C(C)C [zirconium-89 labelled]
tissue uptake (rat, heart; sc, 3 nmol/kg, 4 h, ex vivo): 0.2 %ID/g

CN1CC[C@@H](c2c(O)cc(O)c3c(=O)cc(-c4ccc(C(F)(F)F)cc4Cl)oc23)[C@@H]1CO
patients with adverse event (item: Vomiting; AML; oral, 150 mg, intermittent dosing): 25%

CCc1ccc(CC/C=C/c2ccc3c(c2)C(=O)CC3)cc1
prothrombin time (Sprague-Dawley rat, female, blood; oral, 450 mg/kg/day, 14 days): 12.2 s

OC(CCN1CC=C(c2ccc(F)cc2)CC1)c1ccc(F)c2ccccc12 (stereo not shown)
induction factor (Salmonella typhimurium; genotoxicity, SOS/umu test; TA1535/pSK1002; 0.031 mg/mL, 4 h, without S9, full range): 1.4

CC(C)C[C@@H]1NC(=O)[C@H](CC(C)C)NC(=O)[C@H](Cc2c[nH]c3ccccc23)NC(=O)[C@H](CO)NC(=O)[C@H](Cc2c[nH]c3ccccc23)NC(=O)[C@@H]2CCCN2C(=O)[C@H](CC(C)C)NC(=O)[C@H](Cc2c[nH]cn2)NC(=O)[C@@H]2CCCN2C(=O)[C@H](CC(N)=O)NC(=O)[C@H](C)NC(=O)[C@H](Cc2ccc(O)cc2)NC(=O)[C@H](CS)NC(=O)[C@H](CCCCNC(=O)CN2CCN(CC(=O)O)CCN(CC(=O)O)CCN(CC(=O)O)CC2)NC1=O [lutetium-177 labelled]
total nuclear transformations (OLINDA dosimetry; BALB/c mice, heart; 37 MBq, 7 days): 26.7 MBq-s

C#Cc1ccc2c(c1)C(c1ccccn1)=NCc1c(-c3cnco3)ncn1-2.Cl
solubility (chloroform; 24 h, 25 °C, thermodynamic equilibrium): 1.17 mg/mL

CC(C)CC(=O)OC[C@H]1O[C@@](C#N)(c2ccc3c(N)ncnn23)[C@H](O)[C@@H]1O
recovery (ABCB1 (Homo sapiens, UniProt P08183); basolateral to apical transport; Caco-2; 9 µM, 2 h, with: verapamil 100 µM): 76.6%

Oc1ccc(C2(c3ccc(O)cc3)c3ccccc3-c3ccccc32)cc1
early apoptotic cells (HepG2 spheroids, dissociated; annexin V-FITC/PI flow cytometry; 0.1 µM, 24 h): 13.8 ± 3.34%

O=C(Nc1ccccc1)C1CCN(C(=O)Oc2cccnc2)CC1
Gastrointestinal disorders adverse events (healthy women; oral, 100 mg, 9 days): 30.8%

COc1ccc(N2C(=O)N(c3c(C)cccc3Cl)Cc3cnc(Nc4ccc(C5CCN(C)CC5)cc4OC)nc32)nc1
inhibition (PRKG2 (Homo sapiens, UniProt Q13237); kinase activity; 0.5 µM): 4%

COc1cc2c(Oc3ccc4[nH]c(C)cc4c3F)ccnc2cc1OCC1(N)CC1
grade 1-2 QTc prolongation (paediatric refractory sarcoma patients; 10 mg): 0%

CN(CC(C)(C)C)N=O
revertant colonies per plate (Escherichia coli; mutagenicity, Ames plate incorporation; WP2 uvrA pKM101; 500 µg/plate, without S9, methanol): 147 ± 10

C[C@@H](O)[C@H](NC(=O)[C@@H]1CSSC[C@H](NC(=O)[C@@H](Cc2ccccc2)NC(=O)CN2CCN(CC(=O)[O-])CCN(CC(=O)[O-])CCN(CC(=O)[O-])CC2)C(=O)N[C@@H](Cc2ccc(O)cc2)C(=O)N[C@H](Cc2c[nH]c3ccccc23)C(=O)N[C@@H](CCCCN)C(=O)N[C@@H]([C@@H](C)O)C(=O)N1)C(=O)O.[177Lu+3]
uptake (MEC1 treated with 100 µM zebularine; gamma counter; serum-free RPMI; 120 min, 37 °C): 1.59%

CO[C@H]1C[C@@H]2CC[C@@H](C)[C@@](O)(O2)C(=O)C(=O)N2CCCC[C@H]2C(=O)O[C@H]([C@H](C)C[C@@H]2CC[C@@H](OC(=O)NCCOCCOCCOCCOCCOCCOCCOCCOCCC(=O)N3CCc4cc(Cn5nc(-c6ccc7oc(N)nc7c6)c6c(N)ncnc65)ccc4C3)[C@H](OC)C2)C[C@@H](O)[C@H](C)/C=C(\C)[C@@H](O)[C@@H](OC)C(=O)[C@H](C)C[C@H](C)/C=C/C=C/C=C/1C
dose-reducing adverse events (phase 1 dose escalation, item: gastric haemorrhage; advanced solid tumour patients; intravenous, 10 mg weekly, any grade): 0%

O=C1c2c(O)c(=O)ccn2N([C@@H]2c3ccccc3SCc3c2ccc(F)c3F)[C@@H]2COCCN12
plasma concentration (BALB/c mouse, plasma; oral, 15 mg/kg baloxavir marboxil every 12 h, 24 h): 9.03 ng/mL

Cc1cc(C(=O)NC(C)(C)COc2cccc3c2C(N)=NS(=O)(=O)N3)cc(C)n1
revertant ratio (Salmonella typhimurium; Ames test, initial; TA1535; 500 µg/plate; reference: solvent control): 1.4
